Literature values, collected from citations in different studies.
Each line is one published result; not all experiments were run side by side. Numbers after ± are the reported error.

The IC50 of `CCn1c(CC(=O)N2CCN(c3ccccc3)CC2)nc2sc3c(c2c1=O)CCCC3` is reported as 59 nM (BChE).
For `CN(CCCCCNc1c2c(nc3ccccc13)CCCC2)C1CCC(c2ccc(Cl)c(Cl)c2)c2ccccc21` (stereo not shown), the IC50 was 8 nM (acetylcholinesterase, Electrophorus electricus).
`CC[C@H](C)[C@H](N)C(=O)N[C@@H](CCCNC(=N)N)C(=O)N[C@@H](CC(C)C)C(=O)N[C@@H](CCCNC(=N)N)C(=O)N1CCC[C@H]1C(=O)NCC(=O)NCC(=O)N[C@@H](CCCCN)C(=O)N[C@@H](CCCCN)C(=O)O` has an IC50 of 9360 nM (Mamu-B*03 MHC class I; peptide binding, competitor, competitive binding).
The IC50 of `CNC(=O)Oc1cccc(CN(C)CCCCCOC(=O)/C=C/c2ccc(O)c(OC)c2)c1` is reported as 660 nM (BChE).
The IC50 of `CCn1c2ccccc2c2cc(-c3c(C(=O)OCCOC)c(C)nc4c3C(=O)CCC4)ccc21` is reported as 9720 nM (butyrylcholinesterase, horse; enzyme activity, inhibitor).
`CN(C)c1ccc(NC(=O)CCCCCNC(=O)CS)cc1` has an IC50 of 600 nM (total HDAC).
The IC50 of `CC(C)C[C@H](NC(=O)OCc1ccccc1)C(=O)N[C@H](C=O)C[C@@H]1CCNC1=O` is reported as 9 nM (cathepsin B; inhibitor).
With `COc1c(O)cccc1C(=O)C1CCN(CCc2ccc(F)cc2)CC1` the IC50 was 2.3 nM (5-HT2A receptor (human); calcium release, antagonist; CHO cells expressing human 5-HT2A).
For `CC(C)[C@@H]1NC(=O)[C@H](CCCCN)NC(=O)[C@@H](Cc2c[nH]c3ccccc23)NC(=O)[C@H](Cc2ccc(O)cc2)NC(=O)[C@@H](NC(=O)[C@H](N)Cc2ccc3ccccc3c2)CSSC[C@@H](C(=O)N[C@@H](Cc2ccc3ccccc3c2)C(N)=O)NC1=O`, the IC50 was 4570 nM (bombesin receptor BB2; concentration not given).
For `O=C1[C@@H]2CCCN2[C@@H](c2ccc([N+](=O)[O-])cc2)N1c1ccc([N+](=O)[O-])cc1`, the IC50 was 1200 ± 400 nM (dengue virus 2 NS2B-NS3 protease; inhibitor).
The IC50 of `CC(C)C[C@@H](CN[C@@H](CC(C)C)C(N)=O)NC(=O)[C@H](Cc1c[nH]cn1)NC(=O)CNC(=O)[C@@H](NC(=O)[C@H](C)NC(=O)[C@H](Cc1c[nH]c2ccccc12)NC(=O)[C@H](CCC(N)=O)NC(=O)[C@H](CC(N)=O)NC(=O)CNC(=O)[C@H](CC(C)C)NC(=O)[C@H](CCCNC(=N)N)NC(=O)[C@H](CCC(N)=O)NC(=O)[C@@H]1CCC(=O)N1)C(C)C` is reported as 65 ± 8 nM (mouse GRP receptor; binding; literature species comparison).
The IC50 of `CO[C@H]1CC=C2CCN3CCC4=C(CC(=O)CC4)[C@]23C1` is reported as 370 nM (α4β2 nicotinic acetylcholine receptor; inhibitor).
For `CN(C)c1ccc(/C=C/C(=O)N[C@@H](Cc2ccccc2)C(=O)N[C@H](C=O)C[C@@H]2CCNC2=O)cc1`, the IC50 was less than 500 nM (enterovirus 71 3C protease; enzyme activity, inhibitor).
With `Nc1nc(=O)n(C2CCCS2)cc1C#CCNS(=O)(=O)C1CC1` (stereo not shown) the IC50 was 7700 ± 1450 nM (IspE Klebsiella pneumoniae; enzyme activity, inhibitor).
For `CC[C@H](C)[C@H](NC(=O)[C@@H](NC(=O)[C@@H](NC(=O)[C@H](CCCNC(=N)N)NC(=O)[C@@H](N)CCCCN)C(C)C)C(C)C)C(=O)N[C@@H](CC(N)=O)C(=O)N[C@@H](CCCCN)C(=O)N[C@@H](CC(=O)O)C(=O)N[C@H](C(=O)O)[C@@H](C)O`, the IC50 was 12500 nM (Mamu-B*08 MHC class I; peptide binding, competitor, competitive binding).
For `Clc1ccc(-c2nnc(-c3cncc(-c4ccccc4)c3)o2)cc1`, the IC50 was 4.77 nM (butyrylcholinesterase; inhibitor).

Repeated from above:
The IC50 of `CC(C)C[C@@H](CN[C@@H](CC(C)C)C(N)=O)NC(=O)[C@H](Cc1c[nH]cn1)NC(=O)CNC(=O)[C@@H](NC(=O)[C@H](C)NC(=O)[C@H](Cc1c[nH]c2ccccc12)NC(=O)[C@H](CCC(N)=O)NC(=O)[C@H](CC(N)=O)NC(=O)CNC(=O)[C@H](CC(C)C)NC(=O)[C@H](CCCNC(=N)N)NC(=O)[C@H](CCC(N)=O)NC(=O)[C@@H]1CCC(=O)N1)C(C)C` is reported as 65 ± 8 nM (mouse GRP receptor; binding; literature species comparison).
With `Nc1nc(=O)n(C2CCCS2)cc1C#CCNS(=O)(=O)C1CC1` (stereo not shown) the IC50 was 7700 ± 1450 nM (IspE Klebsiella pneumoniae; enzyme activity, inhibitor).
